Published values of several laboratories.
A part holds a random share of what one study measured.

Study 1
Target: Histone acetyltransferase KAT6A, both winged helices, GST fusion (KAT6A, Homo sapiens, UniProt Q92794, residues 1-181)
Method: protein binding microarray
Form: double-stranded DNA, one strand shown
Medium: in vitro
Tested at: not given
Setting: 8-mer, flanks averaged, mean of 2 arrays, mostly near background
Baseline: not given
Reading: higher = stronger binding
Residues (chain): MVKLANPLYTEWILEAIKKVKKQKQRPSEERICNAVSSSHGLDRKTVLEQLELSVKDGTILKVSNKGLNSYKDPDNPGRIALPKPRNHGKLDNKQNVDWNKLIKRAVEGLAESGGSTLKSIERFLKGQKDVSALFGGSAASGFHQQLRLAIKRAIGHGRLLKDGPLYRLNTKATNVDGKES
`CAGTGCAA` has an E-score of -0.0897.
The E-score of `CGGTTTAA` is reported as 0.181.
The E-score of `GGGTAACA` is reported as -0.0459.
For `ATACGCAA`, the E-score was 0.0712.
The E-score of `ATAAATCA` is reported as -0.0724.
`GTTAGCGA` gave an E-score of 0.118.

Study 2
Target: Interferon regulatory factor 5, full length, phosphomimetic (IRF5, Homo sapiens, UniProt Q13568-2, residues 1-514, K96S/S451D/S453D/S456D/S462D)
Method: protein-binding microarray
Form: double-stranded DNA, one strand shown
Medium: in vitro
Tested at: 250 nM
Setting: 60-bp whole probe
With: salmon DNA 0.4 mg/ml
Baseline: random background probes
Reading: higher = stronger binding
`GCCTAGCACTCATATATCTGAACCGCACTGTGCTAGGTCTTGATTCGCTTGACGCTGCTG` gave a log fluorescence of 0.143 z-score.
`GCCTAGCACGACGGTTTAGGGTTTCGGGACGTGCTAGTCTTGATTCGCTTGACGCTGCTG` gave a log fluorescence of 1.78 z-score.
The log fluorescence of `GCCTAGCACTTAGGACTGGTTCTCCTTTAGTGCTAGGTCTTGATTCGCTTGACGCTGCTG` is reported as -0.174 z-score.
With `GCCTAGCACTTAGAACTGGCGTTTCGATTAGTGCTAGTCTTGATTCGCTTGACGCTGCTG` the log fluorescence was 4.2 z-score.

Study 3
Target: Sal-like protein 4, full length isoform A (SALL4, Homo sapiens, UniProt Q9UJQ4, residues 1-1053)
Chain of UniProt Q9UJQ4 (whole entry, looked up): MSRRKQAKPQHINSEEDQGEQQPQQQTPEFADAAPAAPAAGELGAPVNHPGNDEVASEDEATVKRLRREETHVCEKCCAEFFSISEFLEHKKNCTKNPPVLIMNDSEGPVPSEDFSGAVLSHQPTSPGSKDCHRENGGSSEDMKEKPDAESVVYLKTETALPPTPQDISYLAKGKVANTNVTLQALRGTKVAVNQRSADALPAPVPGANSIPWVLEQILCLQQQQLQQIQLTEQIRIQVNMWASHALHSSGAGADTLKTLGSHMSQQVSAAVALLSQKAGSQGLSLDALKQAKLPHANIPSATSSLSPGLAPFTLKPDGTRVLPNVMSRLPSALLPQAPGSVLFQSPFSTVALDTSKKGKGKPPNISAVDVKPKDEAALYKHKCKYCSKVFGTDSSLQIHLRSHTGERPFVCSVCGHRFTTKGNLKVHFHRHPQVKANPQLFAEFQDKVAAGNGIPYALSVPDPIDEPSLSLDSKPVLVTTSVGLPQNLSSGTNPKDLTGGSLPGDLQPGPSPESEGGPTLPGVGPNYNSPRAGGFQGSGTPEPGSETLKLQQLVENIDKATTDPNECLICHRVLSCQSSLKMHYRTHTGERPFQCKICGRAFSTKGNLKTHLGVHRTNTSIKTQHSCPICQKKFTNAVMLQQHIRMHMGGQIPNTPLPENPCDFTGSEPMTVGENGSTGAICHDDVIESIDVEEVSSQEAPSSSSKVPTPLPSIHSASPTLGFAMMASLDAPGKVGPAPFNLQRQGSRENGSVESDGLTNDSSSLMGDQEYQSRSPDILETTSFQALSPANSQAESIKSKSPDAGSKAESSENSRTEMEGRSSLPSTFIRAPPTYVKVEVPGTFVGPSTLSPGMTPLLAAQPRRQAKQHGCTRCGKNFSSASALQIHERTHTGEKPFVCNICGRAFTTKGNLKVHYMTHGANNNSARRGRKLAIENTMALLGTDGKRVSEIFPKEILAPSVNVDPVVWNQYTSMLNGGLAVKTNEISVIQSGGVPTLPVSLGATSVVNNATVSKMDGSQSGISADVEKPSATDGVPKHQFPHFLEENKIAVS
Method: universal PBM
Form: double-stranded DNA, one strand shown
Medium: in vitro
Tested at: 600 nM
Setting: 8-mer, flanks averaged, mean of replicates
Reading: higher = stronger binding
For `GACCCCGC`, the E-score was -0.283.
The E-score of `CATCGCCC` is reported as -0.327.
`AGAGCCGC` has an E-score of -0.362.
`GGAACACA` has an E-score of -0.0445.

Further values, each from its own experiment
With `PhoQ, residues 284 288 289 292 302 303 SLSVQF` the fold induction was 15 (PhoP, residues 12 14 15 18 19 SYFRT (Escherichia coli, UniProt P23836); Sort-seq, measured: YFP reporter; E. coli; PhoQ-PhoP variant library, with: 10 µM Mg2+; baseline: high Mg2+ state, higher = stronger signaling).
